Measured values collected from several papers.
Protocols differ between the studies behind these lines. “And” joins repeats or separate records; there may be more than shown. Numbers after ± are the reported error. In brackets after ≈: the same amount, converted by molar mass.

| SMILES | tested on | test | test system | conditions | how to read | endpoint | value |
| --- | --- | --- | --- | --- | --- | --- | --- |
| Cc1nn(-c2cccc(N)c2)c(=O)c2cnc(Nc3ccc(N4CCNCC4)cc3)nc12 | ABL1 (Homo sapiens, UniProt P00519, T315I) | enzyme activity, inhibitor | – | – | – | IC50 | > 10000 nM |
| c1ccc(CN2CCOCCOCCN(CCCCCCCCCCN3CCOCCOCCN(CCCCCCCCCCN4CCOCCOCCN(Cc5ccccc5)CCOCCOCC4)CCOCCOCC3)CCOCCOCC2)cc1 | Klebsiella pneumoniae | checkerboard | ATCC BAA-2146 | half MIC, added: tetracycline | – | FIC index | 0.63 |
| O=C(Nn1c(-c2cccc(Cl)c2)nc2ccccc2c1=O)c1ccccc1 | Fasciola hepatica | – | adult, ex vivo | concentration not given | – | time to motility loss | ≤ 10 min |
| Cc1ccc(S(=O)(=O)Nn2c3c(cc(-c4nc5ccccc5s4)c2=O)CCCC3)cc1 | herpes simplex virus 1 | viral replication, plaque | Vero | non-toxic dose, mean of three titres | – | plaque reduction | 40% |
| CC(=O)OC[C@H]1O[C@@H](Sc2sc(C(=O)c3ccc(Cl)cc3)c(N)c2-c2nc3ccccc3s2)[C@H](OC(C)=O)[C@@H](OC(C)=O)[C@H]1OC(C)=O | herpes simplex virus 1 | plaque reduction | – | non-toxic dose NG, mean over three titres | – | viral reduction | 10% |
| Cc1ccc(Nc2n[nH]c3nc(-c4ccncc4)nc(N)c23)cc1 | rhinovirus B48 | viral cytopathic effect | HeLa | – | – | IC50 | 130000 nM |
| Cc1ccc(-c2ccc(C3CCCCC3)cc2)cn1 | – | liver microsome stability | cynomolgus liver microsomes | 1 µM | – | hepatic clearance | 39 mL/min/kg |
| Cc1cccc2c1N(C(=O)n1ccnn1)CC2 | Arabidopsis thaliana | – | wild type, seeds | 10 µM, high ambient temperature | – | germination rate | 0% and 8% and 76.5% and 14% and 18.2% and 10% |
| c1ccc(CN2CCOCCOCCN(CCCCCCCCCCCCCCN3CCOCCOCCN(CCCCCCCCCCCCCCN4CCOCCOCCN(Cc5ccccc5)CCOCCOCC4)CCOCCOCC3)CCOCCOCC2)cc1 | Klebsiella pneumoniae | checkerboard | ATCC BAA-2146 | quarter MIC, added: tetracycline | – | FIC index | 0.58 |
| Nc1nc(-c2ccccc2)nc2[nH]nc(Nc3cccnc3)c12 | rhinovirus B48 | viral cytopathic effect | HeLa | – | – | IC50 | 28500 nM |
| CCCOC(=O)N1c2cc(CNC)ccc2[C@H](NC(=O)C(=O)Nc2ccc(Cl)c(F)c2)[C@H]1CNC(=N)N | HIV-1 | viral infection | TZM-bl, CRF02_AG 263-8 Env pseudovirus | – | – | IC80 | 1580 nM |
| C=C(NC(=O)c1csc(-c2nc3c(cc2O)-c2nc(cs2)C(=O)NC(C(C)O)C(=O)NC(=C(C)OC)c2nc(cs2)C(=O)NC2c4nc(cs4)C(=O)NC(COC(=O)c4c5c6c(cccc6n4O)COC(=O)C(OC4CC(C)(O)C(N(C)C)C(C)O4)C2OC5)c2nc-3cs2)n1)C(N)=O (stereo not drawn) | Staphylococcus aureus | – | MRSA, 10 isolates | serum 0% | – | MIC50 | 0.0156 µg/mL |
| CC[C@H](C)CCCCC(=O)N[C@@H](CCN)C(=O)N[C@H](C(=O)N[C@@H](CCN)C(=O)N[C@H]1CCNC(=O)[C@H]([C@@H](C)O)NC(=O)[C@H](CCN)NC(=O)[C@H](CCN)NC(=O)[C@H](CC(C)C)NC(=O)[C@@H](CC(C)C)NC(=O)[C@H](CCN)NC1=O)[C@@H](C)O | Klebsiella pneumoniae | – | BAA-2784, BALB/c mouse peritonitis, liver | dose not given | – | bacterial load | 9.03 log CFU and 8.64 log CFU and 8.81 log CFU and 8.83 log CFU and 8.72 log CFU |
| Nc1nc(-c2ccc(C(F)(F)F)cc2)nc2[nH]nc(Nc3ccc(F)cc3)c12 | rhinovirus B48 | viral cytopathic effect | HeLa | – | – | IC50 | 3250 nM |
| C[C@@H]1C(=O)O[C@@H](C)/C=C/C=C\[C@@H](C)[C@@H]2C=C[C@@H]3C[C@@]4(C)O[C@H]4[C@@H](C)[C@H]3[C@@H]2C(=O)C(Cl)(Cl)C1=O | Staphylococcus aureus | – | MSSA clinical isolate | resistant: PEN,CIP,CLI,DAP,ERY,MXF | – | MIC | 0.0125 µg/mL (≈ 0.0252 µM) |
| COC1C=COC2(C)Oc3c(C)c(O)c4c(c3C2=O)C2=NC3(CCN(CC(C)C)CC3)NC2=C(NC(=O)C(C)=CC=CC(C)C(O)C(C)C(O)C(C)C(OC(=O)Nc2cccnn2)C1C)C4=O (stereo not drawn) | Mycobacteroides abscessus | bacterial growth | subsp. abscessus K21 clinical isolate | – | – | IC90 | 219 nM |
| FC(F)(F)c1cccc(CNc2nc(NC3CCN(Cc4ccccc4)CC3)c3nc[nH]c3n2)c1 | Cryptococcus neoformans | RNA-seq, refers to: PLC1 (CNAG_02867) mRNA | – | 48 µg/mL, 3 h | baseline: untreated wild type | log2 fold change | 0.574 |
| Cc1cc(Cl)cc(S(C)=NC#N)c1NC(=O)c1cc(Br)nn1-c1ncccc1Cl (stereo not drawn) | Plutella xylostella | – | Raphanus sativus field plot | 50 ppm, 72 h, 10% wettable powder | – | larval viability | 13.8% and 8.6% and 9.7% |
| CC(C)(C)NCC(SS(=O)(=O)O)c1ccccc1 (stereo not drawn) | Schistosoma mansoni | – | infected Swiss Webster mice | 100 mg/kg single, dosed day 42, perfusion day 56 | – | mean male worms recovered | 13.5 worms per mouse |
| CC(C)C[C@H](NC(=O)[C@H](Cc1ccc(O)cc1)NC(=O)[C@@H]1CCCN1C(=O)[C@H](CCCNC(=N)N)NC(=O)[C@@H]1CCCN1C(=O)[C@H](CCCCN)NC(=O)[C@H](CC(=O)O)NC(=O)[C@@H]1CCCN1C(=O)[C@H](CCCNC(=N)N)NC(=O)C1(N)CCCCC1)C(=O)N1CCC[C@H]1C(=O)N[C@@H](CCCNC(=N)N)C(=O)N1CCC[C@H]1C(=O)N[C@@H](CCCNC(=N)N)C(=O)N1CCC[C@H]1C(=O)N1CCC[C@H]1C(=O)N[C@@H](CCCNC(=N)N)C(=O)N1CCC[C@H]1C(=O)N[C@H](C(=O)N[C@@H](CCCNC(=N)N)C(=O)N[C@@H](CSc1c(F)c(F)c(SC[C@H](NC(=O)[C@H](CCCNC(=N)N)NC(=O)[C@@H](NC(=O)[C@@H]2CCCN2C(=O)[C@H](CCCNC(=N)N)NC(=O)[C@@H]2CCCN2C(=O)[C@@H]2CCCN2C(=O)[C@H](CCCNC(=N)N)NC(=O)[C@@H]2CCCN2C(=O)[C@H](CCCNC(=N)N)NC(=O)[C@@H]2CCCN2C(=O)[C@H](CC(C)C)NC(=O)[C@H](Cc2ccc(O)cc2)NC(=O)[C@@H]2CCCN2C(=O)[C@H](CCCNC(=N)N)NC(=O)[C@@H]2CCCN2C(=O)[C@H](CCCCN)NC(=O)[C@H](CC(=O)O)NC(=O)[C@@H]2CCCN2C(=O)[C@H](CCCNC(=N)N)NC(=O)C2(N)CCCCC2)C(C)C)C(=O)NN)c(F)c1F)C(=O)NN)C(C)C | Klebsiella pneumoniae | membrane disruption, propidium iodide uptake | 13883 | 90 min, 37 °C | – | MDC | 6.9 ± 0.2 µg/mL |

| SMILES | tested on | test | test system | conditions | how to read | endpoint | value |
| --- | --- | --- | --- | --- | --- | --- | --- |
| CC1(C)C(NC(=O)C(=NOC2(C(=O)O)CC2)c2csc(N)n2)C(=O)N1OS(=O)(=O)O (stereo not drawn) | Enterobacter aerogenes | agar dilution | ATCC 13048, susceptible | – | – | MIC | 0.125 µg/mL (≈ 0.27 µM) |
| C=C1C(=O)OC2C1CCC(C)(O)C13C=CC(C)(C21)C1(C3)C(=O)OC2C3C(C)C(=O)CC3C(=C)CC(OC(C)=O)C21 (stereo not drawn) | Danio rerio | Oil Red O staining | – | 2.5 and 10 µM, HFD-fed larvae NAFLD model | – | liver lipid droplets | decreased |
| c1ccc(CN2CCOCCOCCN(CCCCCCCCN3CCOCCOCCN(CCCCCCCCN4CCOCCOCCN(Cc5ccccc5)CCOCCOCC4)CCOCCOCC3)CCOCCOCC2)cc1 | Klebsiella pneumoniae | tetracycline MIC, checkerboard | ATCC BAA-2146 | quarter MIC, added: tetracycline | baseline: MIC alone over combination | fold enhancement | 4 fold |
| Nc1nc(-c2ccc(F)cc2F)nc2[nH]nc(Nc3ccc(F)cc3)c12 | rhinovirus B48 | viral cytopathic effect | HeLa | – | – | IC50 | 2470 nM |
| CC1(C)[C@H](NC(=O)/C(=N\OCCN)c2nsc(N)n2)C(=O)N1OS(=O)(=O)O | Enterobacter aerogenes | agar dilution | ATCC 13048, susceptible | – | – | MIC | 16 µg/mL (≈ 37.8 µM) |
| CC(=O)OC[C@H]1O[C@@H](Sc2sc(C(=O)c3ccc(C)cc3)c(N)c2-c2nc3ccccc3s2)[C@H](OC(C)=O)[C@@H](OC(C)=O)[C@@H]1OC(C)=O | herpes simplex virus 1 | plaque reduction | – | non-toxic dose NG, mean over three titres | – | viral reduction | 6.7% |
| CC1(F)CN(C(=O)Cn2c(=O)c(C(=O)NCc3ccc(Cl)cc3)cc3nc(N4CCN(CCN)C4=O)cnc32)C1 | Human betaherpesvirus 5 | viral replication, inhibitor | AD169 | – | – | EC50 | 285 nM |
| Nc1nc(-c2ccccc2)nc2[nH]nc(Nc3ccc(F)cc3)c12 | rhinovirus B48 | viral cytopathic effect | HeLa | – | – | IC50 | 130 nM |
| Nc1ncc(-c2cc(-c3cnn(CC(F)(F)F)c3)ncc2F)nc1C(=O)NC1CNCC(F)C1 (stereo not drawn) | DYRK1A | KINOMEscan | – | 1 µM | baseline: DMSO control | remaining binding | 92% |
| O=C(NCc1cccc(Cl)c1)c1ccc([C@H]2[C@@H](F)[C@@H](F)C[C@@H](F)[C@H]2F)cc1 | – | hepatocyte stability | cryopreserved mouse hepatocytes | 1 µM | – | hepatic clearance | 75 mL/min/kg |
| O=C(NCC(O)(Cn1cncn1)c1ccc(F)cc1F)[c-]1cccc1.[Cl-].[Co+3].c1cc[cH-]c1 (racemic) | Candida glabrata | EUCAST | – | – | – | MIC50 | 100 µM |
| C=C[C@]1(C)C[C@@H](OC(=O)CSc2ccc(NC(=O)c3ccco3)cc2)[C@]2(C)[C@H](C)CC[C@]3(CCC(=O)[C@H]32)[C@@H](C)[C@@H]1O | Mycoplasma gallisepticum | – | infected chickens, lung | intramuscular, 40 mg/kg daily x3, 72 h | baseline: 0 h | lung mycoplasma load reduction | 2.03 log10 CFU/mL and 1.29 log10 CFU/mL and 2.8 log10 CFU/mL and 1.9 log10 CFU/mL and 1.57 log10 CFU/mL and 1.88 log10 CFU/mL and 2.25 log10 CFU/mL |
| Cc1cccc(Nc2n[nH]c3nc(-c4ccc(F)cc4F)nc(N)c23)c1 | rhinovirus B48 | viral cytopathic effect | HeLa | – | – | IC50 | 2160 nM |
| Cc1ncsc1-c1ccc(C(C)NC(=O)C2CC(O)CN2C(=O)C(NC(=O)CCCCCCCCCCN2CCCC(Nc3ncc(Cl)c(Nc4ccccc4S(=O)(=O)C(C)C)n3)C2)C(C)(C)C)cc1 (stereo not drawn) | 22Rv1 | RNA-seq, refers to: NIPAL1 mRNA | – | concentration not given | baseline: DMSO | log2 fold change | -1.7 |
| Cc1cc(C(=O)Nc2nc3cccc(C)c3n2[C@H]2CCCCN(C(=O)/C=C/CN(C)C)C2)ccn1 | Trypanosoma brucei brucei | growth inhibition, CellTiter-Glo | Lister 427 bloodstream form | 48 h | – | EC50 | 65 nM and 72 nM |
| Nc1nc(-c2ccccc2)nc2[nH]nc(Nc3c(F)cc(F)cc3F)c12 | rhinovirus B48 | viral cytopathic effect | HeLa | – | – | IC50 | 7960 nM |
| C[N+](C)(C)CCO.O=C([O-])C(Cl)Cl | Solanum nigrum | herbicidal activity | – | 15 mg/mL, 21 days, post-emergence greenhouse | – | inhibition | 0% |
| Cc1cccc(Nc2n[nH]c3nc(-c4ccccc4F)nc(N)c23)c1 | rhinovirus B48 | viral cytopathic effect | HeLa | – | – | IC50 | 4320 nM |
| CN(Cc1ccc(C2(C(F)(F)F)CCC2)cc1)Cc1cccc2ccccc12 | Trichophyton mentagrophytes | microbial growth, disc diffusion | ATCC18748 | 0.002 µg/mL, 72 h | – | inhibition zone | 0 mm |
